# Experimental data gathered from unrelated publications.
# Compare with care: the assays were run in different laboratories. “And” joins repeats or separate records; there may be more than shown. Numbers after ± are the reported error.
# YWHAZ: 14-3-3 protein zeta/delta (YWHAZ, Homo sapiens, UniProt P63104)
# Chain of UniProt Q9H4M9 (whole entry, looked up): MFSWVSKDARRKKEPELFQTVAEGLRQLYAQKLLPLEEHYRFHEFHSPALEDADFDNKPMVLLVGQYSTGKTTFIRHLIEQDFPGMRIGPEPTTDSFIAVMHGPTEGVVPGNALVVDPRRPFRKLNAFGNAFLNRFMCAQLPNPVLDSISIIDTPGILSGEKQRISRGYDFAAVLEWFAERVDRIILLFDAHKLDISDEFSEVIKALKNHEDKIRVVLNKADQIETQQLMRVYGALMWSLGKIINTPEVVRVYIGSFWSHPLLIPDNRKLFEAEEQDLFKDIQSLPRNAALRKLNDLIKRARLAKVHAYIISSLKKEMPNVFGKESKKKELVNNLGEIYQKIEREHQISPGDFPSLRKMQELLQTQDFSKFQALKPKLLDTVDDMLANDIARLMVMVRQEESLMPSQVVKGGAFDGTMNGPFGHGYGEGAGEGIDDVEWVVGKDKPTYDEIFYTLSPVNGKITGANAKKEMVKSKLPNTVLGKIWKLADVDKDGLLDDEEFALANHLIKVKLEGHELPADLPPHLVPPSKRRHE
# Chain of UniProt P63104 (whole entry, looked up): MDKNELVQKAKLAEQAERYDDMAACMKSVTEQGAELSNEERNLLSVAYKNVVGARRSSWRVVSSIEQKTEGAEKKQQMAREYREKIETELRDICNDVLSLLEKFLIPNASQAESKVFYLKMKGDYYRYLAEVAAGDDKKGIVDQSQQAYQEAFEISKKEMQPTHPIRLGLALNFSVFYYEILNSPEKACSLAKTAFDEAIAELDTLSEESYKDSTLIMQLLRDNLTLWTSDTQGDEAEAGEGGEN
# Chain of UniProt Q8NEZ5 (whole entry, looked up): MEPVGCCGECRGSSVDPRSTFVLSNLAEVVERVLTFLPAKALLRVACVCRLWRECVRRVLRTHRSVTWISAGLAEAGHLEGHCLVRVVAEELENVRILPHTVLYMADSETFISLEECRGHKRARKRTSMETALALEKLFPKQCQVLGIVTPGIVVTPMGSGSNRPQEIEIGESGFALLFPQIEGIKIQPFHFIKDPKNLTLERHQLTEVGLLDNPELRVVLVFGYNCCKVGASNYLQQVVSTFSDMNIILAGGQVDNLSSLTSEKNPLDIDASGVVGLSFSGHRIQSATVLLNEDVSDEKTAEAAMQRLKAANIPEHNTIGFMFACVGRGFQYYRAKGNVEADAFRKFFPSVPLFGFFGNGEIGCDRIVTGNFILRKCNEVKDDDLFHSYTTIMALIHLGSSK
# Chain of UniProt P31947 (whole entry, looked up): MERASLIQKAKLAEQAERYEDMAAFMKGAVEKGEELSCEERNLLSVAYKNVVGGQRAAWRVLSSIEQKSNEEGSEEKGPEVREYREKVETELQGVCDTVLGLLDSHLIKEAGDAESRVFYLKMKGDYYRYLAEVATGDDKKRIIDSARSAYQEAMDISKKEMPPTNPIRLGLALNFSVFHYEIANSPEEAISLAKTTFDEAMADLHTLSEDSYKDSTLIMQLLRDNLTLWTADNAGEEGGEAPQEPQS
# Chain of UniProt Q13283 (whole entry, looked up): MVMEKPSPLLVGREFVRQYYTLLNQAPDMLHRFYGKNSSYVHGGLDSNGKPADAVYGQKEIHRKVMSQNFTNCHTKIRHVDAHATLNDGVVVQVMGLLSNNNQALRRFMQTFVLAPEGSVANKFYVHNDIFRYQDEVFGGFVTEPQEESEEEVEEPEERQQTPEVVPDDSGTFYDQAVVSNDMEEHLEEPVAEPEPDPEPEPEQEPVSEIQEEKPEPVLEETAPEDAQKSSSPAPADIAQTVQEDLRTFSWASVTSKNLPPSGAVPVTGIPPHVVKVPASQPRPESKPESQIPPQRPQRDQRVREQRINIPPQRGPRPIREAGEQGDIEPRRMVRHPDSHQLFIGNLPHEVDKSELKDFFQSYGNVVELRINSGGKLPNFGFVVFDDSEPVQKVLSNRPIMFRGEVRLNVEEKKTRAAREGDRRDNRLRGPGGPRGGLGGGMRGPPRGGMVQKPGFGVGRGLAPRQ
# Chain of UniProt P83916 (whole entry, unmodified, looked up): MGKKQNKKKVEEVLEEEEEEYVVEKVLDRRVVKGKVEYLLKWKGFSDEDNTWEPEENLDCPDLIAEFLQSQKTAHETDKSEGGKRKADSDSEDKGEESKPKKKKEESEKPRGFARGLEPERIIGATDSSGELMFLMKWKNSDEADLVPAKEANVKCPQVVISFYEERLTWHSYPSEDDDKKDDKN
# Chain of UniProt P46109 (whole entry, looked up): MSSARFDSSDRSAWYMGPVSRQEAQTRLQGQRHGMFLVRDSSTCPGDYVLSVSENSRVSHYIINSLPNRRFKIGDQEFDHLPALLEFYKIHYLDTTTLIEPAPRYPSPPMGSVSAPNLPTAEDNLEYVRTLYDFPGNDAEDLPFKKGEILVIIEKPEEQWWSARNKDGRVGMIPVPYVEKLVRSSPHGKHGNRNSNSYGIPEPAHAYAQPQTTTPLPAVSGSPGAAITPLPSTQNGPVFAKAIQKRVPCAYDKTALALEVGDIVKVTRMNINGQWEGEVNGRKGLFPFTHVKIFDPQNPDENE
# Chain of UniProt Q9H7M9 (whole entry, looked up): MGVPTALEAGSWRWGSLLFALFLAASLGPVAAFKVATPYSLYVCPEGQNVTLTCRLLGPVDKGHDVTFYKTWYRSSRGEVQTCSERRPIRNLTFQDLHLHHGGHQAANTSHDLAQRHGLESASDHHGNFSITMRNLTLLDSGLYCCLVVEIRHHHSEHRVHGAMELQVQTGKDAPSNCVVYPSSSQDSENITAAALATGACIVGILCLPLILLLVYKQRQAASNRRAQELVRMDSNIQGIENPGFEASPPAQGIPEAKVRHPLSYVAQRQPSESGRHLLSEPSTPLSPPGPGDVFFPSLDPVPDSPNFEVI
# Chain of UniProt O60674 (whole entry, looked up): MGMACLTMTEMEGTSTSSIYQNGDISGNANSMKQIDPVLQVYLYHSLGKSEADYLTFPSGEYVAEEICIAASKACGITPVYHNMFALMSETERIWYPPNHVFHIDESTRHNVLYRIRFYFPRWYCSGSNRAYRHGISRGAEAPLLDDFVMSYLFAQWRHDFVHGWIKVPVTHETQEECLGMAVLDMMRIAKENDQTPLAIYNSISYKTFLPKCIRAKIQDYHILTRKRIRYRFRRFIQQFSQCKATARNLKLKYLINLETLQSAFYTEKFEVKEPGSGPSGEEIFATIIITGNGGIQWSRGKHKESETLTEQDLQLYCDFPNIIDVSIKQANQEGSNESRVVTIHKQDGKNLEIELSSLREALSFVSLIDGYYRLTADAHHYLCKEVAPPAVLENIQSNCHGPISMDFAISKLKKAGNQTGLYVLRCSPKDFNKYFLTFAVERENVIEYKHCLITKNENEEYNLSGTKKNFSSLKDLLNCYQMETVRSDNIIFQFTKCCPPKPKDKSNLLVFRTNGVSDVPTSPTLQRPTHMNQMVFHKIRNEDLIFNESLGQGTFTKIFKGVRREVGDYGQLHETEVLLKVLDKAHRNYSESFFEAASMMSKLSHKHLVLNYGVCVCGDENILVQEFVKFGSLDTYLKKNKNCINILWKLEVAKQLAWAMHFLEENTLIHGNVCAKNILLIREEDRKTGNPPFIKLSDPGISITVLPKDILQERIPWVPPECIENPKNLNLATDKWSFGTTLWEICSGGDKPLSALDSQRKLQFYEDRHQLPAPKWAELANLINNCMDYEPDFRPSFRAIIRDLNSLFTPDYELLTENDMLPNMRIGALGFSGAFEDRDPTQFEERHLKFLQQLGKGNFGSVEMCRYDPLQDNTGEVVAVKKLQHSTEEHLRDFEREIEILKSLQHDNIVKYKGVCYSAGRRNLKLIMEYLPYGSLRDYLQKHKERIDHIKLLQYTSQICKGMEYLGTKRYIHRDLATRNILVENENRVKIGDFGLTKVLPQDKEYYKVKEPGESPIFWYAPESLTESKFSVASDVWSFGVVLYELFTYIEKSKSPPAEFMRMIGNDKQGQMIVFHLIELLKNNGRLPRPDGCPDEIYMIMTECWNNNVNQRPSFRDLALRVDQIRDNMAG
# Chain of UniProt P33913 (whole entry, unmodified, looked up): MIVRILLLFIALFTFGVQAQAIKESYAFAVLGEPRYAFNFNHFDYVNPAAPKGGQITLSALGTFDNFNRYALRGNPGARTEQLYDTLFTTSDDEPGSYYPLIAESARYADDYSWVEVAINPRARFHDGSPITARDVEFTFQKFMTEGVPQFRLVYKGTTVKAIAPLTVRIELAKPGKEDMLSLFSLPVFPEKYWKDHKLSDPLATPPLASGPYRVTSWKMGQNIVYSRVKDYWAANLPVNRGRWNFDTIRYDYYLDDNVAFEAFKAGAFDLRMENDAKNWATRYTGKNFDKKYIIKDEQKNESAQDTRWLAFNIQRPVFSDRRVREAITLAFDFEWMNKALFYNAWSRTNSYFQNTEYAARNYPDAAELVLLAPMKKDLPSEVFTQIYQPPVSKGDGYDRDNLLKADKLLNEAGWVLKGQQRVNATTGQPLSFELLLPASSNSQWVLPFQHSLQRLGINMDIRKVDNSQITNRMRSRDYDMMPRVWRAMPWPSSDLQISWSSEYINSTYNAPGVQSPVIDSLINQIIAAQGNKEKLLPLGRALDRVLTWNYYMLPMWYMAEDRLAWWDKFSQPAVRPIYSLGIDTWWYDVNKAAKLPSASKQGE
# Chain of UniProt P30048 (whole entry, looked up): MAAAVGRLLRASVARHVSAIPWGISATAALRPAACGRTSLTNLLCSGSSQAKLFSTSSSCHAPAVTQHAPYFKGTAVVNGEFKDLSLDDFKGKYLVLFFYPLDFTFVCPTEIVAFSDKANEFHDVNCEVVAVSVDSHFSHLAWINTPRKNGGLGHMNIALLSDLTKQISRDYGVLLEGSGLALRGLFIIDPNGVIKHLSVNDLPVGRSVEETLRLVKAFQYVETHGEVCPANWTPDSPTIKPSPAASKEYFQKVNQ
# Chain of UniProt P97287 (152-308, looked up): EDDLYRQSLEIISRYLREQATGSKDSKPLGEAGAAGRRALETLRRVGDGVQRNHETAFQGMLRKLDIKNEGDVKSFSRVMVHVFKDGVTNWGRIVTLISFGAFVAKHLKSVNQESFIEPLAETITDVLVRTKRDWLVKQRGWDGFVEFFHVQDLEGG
Compound,target,assay,conditions,Kd
CC[C@H](C)[C@H](NC(=O)[C@H](CO)NC(=S)Nc1ccc2c(c1)C(=O)OC21c2ccc(O)cc2Oc2cc(O)ccc21)C(=O)N[C@@H](CCC(=O)O)C(=O)N[C@@H](CCCCN)C(=O)NCC(=O)NCC(=O)N[C@@H](CCP(=O)(O)O)C(=O)N[C@@H](CC(C)C)C(=O)N1CCC[C@H]1C(=O)N[C@@H](CCCCN)C(=O)N[C@H](C(=O)N[C@@H](Cc1c[nH]c2ccccc12)C(=O)N[C@@H](CC(C)C)C(=O)N[C@H](C(=O)N1CCC[C@H]1C(=O)N[C@@H](CCCNC(=N)N)C(=O)O)C(C)C)C(C)C,"14-3-3 protein sigma (SFN, Homo sapiens, UniProt P31947)","binding, fluorescence anisotropy","pH 7.5, FITC-labelled phosphopeptide titration",268 µM
C[C@H](N)C(=O)N[C@@H](CCCNC(=N)N)C(=O)N[C@H](C(=O)N[C@@H](CCCCN)C(=O)N[C@@H](CCC(N)=O)C(=O)N[C@H](C(=O)N[C@@H](C)C(=O)N[C@@H](CCCNC(=N)N)C(=O)N[C@@H](CCCCN)C(=O)N[C@@H](CO)C(=O)N[C@H](C(=O)NCC(=O)NCC(=O)N[C@@H](CCCCN)C(=O)N[C@@H](C)C(=O)N[C@@H](Cc1ccc(O)cc1)C(N)=O)[C@@H](C)O)[C@@H](C)O)[C@@H](C)O,"Chromobox protein homolog 1, chromodomain (Homo sapiens, UniProt P83916, D59F/K43A)",ITC,"pH 7.4, 25 °C",46 ± 6 µM
C=C[C@@]1(C)CC[C@@H](C(=C)C)[C@H](c2c[nH]c3ccccc23)[C@H]1N=C=S,"Transcriptional coactivator YAP1 (YAP1, Homo sapiens, UniProt P46937)","binding, BLI",,9.13 µM
COCC[C@@H](NC(=O)[C@H](C)NC(=O)[C@H](NC(=O)[C@H](NC(=O)[C@H](F)CC(C)(C)C)C(C)(C)O)[C@H](C)c1ccccc1)C(=O)N(C)Cc1ccccc1,"Ras GTPase-activating protein-binding protein 1 (G3BP1, Homo sapiens, UniProt Q13283)","binding, SPR",,75.5 µM
CC(C)C[C@@H]1NC(=O)[C@@H]2CSSC[C@@H](C(=O)NCC(=O)O)NC(=O)[C@H](Cc3ccccc3)NC(=O)CNC(=O)[C@H](CC(N)=O)NC(=O)[C@@H]3CCCN3C(=O)CNC(=O)[C@@H]3CSSC[C@H](NC(=O)[C@H](CCCNC(=N)N)NC(=O)[C@@H]4CCCN4C(=O)[C@H](CCCNC(=N)N)NC(=O)[C@H](CCCCN)NC(=O)[C@H](C(C)C)NC(=O)[C@H](C(C)C)NC(=O)[C@H](CC(N)=O)NC(=O)[C@H](C(C)C)NC(=O)[C@H](CO)NC(=O)[C@H](CCC(N)=O)NC(=O)[C@@H](NC(=O)CN)CSSC[C@H](NC(=O)CNC(=O)[C@H](C)NC1=O)C(=O)N[C@@H](C(C)C)C(=O)N3)C(=O)N[C@@H](CCCCN)C(=O)N[C@@H](CCC(N)=O)C(=O)N[C@@H](CC(=O)O)C(=O)N[C@@H](CO)C(=O)N[C@@H](CC(=O)O)C(=O)N2,"Low-density lipoprotein receptor-related protein 6, E1 domain (LRP6, Homo sapiens, UniProt O75581)","binding, SPR",pH 7.5,0.0592 µM
CC(=O)NC1C(O)OC(CO)C(OC2OC(CO)C(OC3OC(CO)C(O)C(O)C3O)C(O)C2O)C1O (stereo not drawn),"sly (Streptococcus suis, UniProt Q55996, D394A)",binding,,0.78 µM
CC(=O)N[C@@H](CCCNC(=N)N)C(=O)N[C@H](C(=O)N[C@@H](CCCCN)C(=O)N[C@@H](CCC(N)=O)C(=O)N[C@H](C(=O)N[C@@H](C)C(=O)N[C@@H](CCCNC(=N)N)C(=O)N[C@@H](CCCCNC(=O)c1ccccc1)C(=O)N[C@@H](CO)C(=O)N[C@H](C(=O)NCC(=O)NCC(=O)N[C@@H](CCCCN)C(=O)N[C@@H](C)C(=O)N1CCC[C@H]1C(N)=O)[C@@H](C)O)[C@@H](C)O)[C@@H](C)O,"Protein AF-9 (Homo sapiens, UniProt P42568, F28S)",ITC,"15 °C, mutant",3.8 µM
CC=C1CN2CCc3c([nH]c4ccccc34)C2CC1C(=COC)C(=O)OC (stereo not drawn),"Thioredoxin-dependent peroxide reductase, mitochondrial (PRDX3, Homo sapiens, UniProt P30048)","binding, surface plasmon resonance",,21.7 ± 0.46 µM
CC(=O)N[C@@H](CCCNC(=N)N)C(=O)N[C@H](C(=O)N1CCC[C@H]1C(=O)N[C@@H](COP(=O)(O)O)C(=O)N[C@@H](CC(C)C)C(=O)N1CCC[C@H]1C(=O)NCC(=O)N1CCC[C@H]1C(c1ccccc1)c1ccccc1)[C@@H](C)O,YWHAZ,isothermal titration calorimetry,first duplicate,5.62 ± 0.5 µM
CSCC[C@H](NC=O)C(=O)N[C@@H](CCCNC(=N)N)C(=O)N[C@H](C(=O)NCC(=O)N[C@@H](CC(N)=O)C(=O)N[C@@H](C)C(=O)N[C@@H](CC(N)=O)C(=O)NCC(=O)NCC(=O)N[C@@H](CCCCNC(=S)Nc1ccc2c(c1)C(=O)OC21c2ccc(O)cc2Oc2cc(O)ccc21)C(=O)O)[C@@H](C)O,"Uncharacterized protein YejA (yejA, Escherichia coli, UniProt P33913, T508A)","binding, fluorescence polarisation",YejA variant T490A,85.5 ± 19.7 µM
O=C(N[C@@H]1c2ccccc2C[C@H]1N1CCCC1)c1ccc(-c2ccnc3[nH]ccc23)nc1,"Tyrosine-protein kinase JAK2, JH1 (JAK2, Homo sapiens, UniProt O60674)","binding, competition with immobilised ligand",,0.058 µM
CC(CO)C1CN2C(=O)[C@H](CC(=O)O)NC(=O)CC(CC3CC3)NC(=O)[C@H](CCC(=O)O)NC(=O)CNC(=O)[C@H]([C@@H](C)O)NC(=O)[C@H](CCC(=O)O)NC(=O)[C@@H]2C1(F)F (stereo partly drawn),"Kelch-like ECH-associated protein 1 (KEAP1, Homo sapiens, UniProt Q14145)","binding, MST",pH 6,~0.007 µM
CC(C)C[C@H](NC(=O)[C@H](CCCNC(=N)N)NC(=O)[C@H](CO)NC(=O)[C@H](CC(N)=O)NC(=O)c1ccc2c(c1)C(=O)OC21c2ccc(N(C)C)cc2Oc2cc(N(C)C)ccc21)C(=O)NCC(=O)N[C@@H](CC(N)=O)C(=O)NCC(=O)N[C@H](C(=O)N[C@@H](CC(C)C)C(=O)N[C@@H](Cc1ccc(OP(=O)(O)O)cc1)C(=O)N[C@@H](C)C(=O)N[C@@H](CO)C(=O)N[C@H](C(=O)N[C@@H](CC(N)=O)C(=O)N1CCC[C@H]1C(=O)N[C@@H](CCC(=O)O)C(=O)N[C@@H](Cc1ccc(O)cc1)C(=O)N[C@@H](CC(=O)O)C(=O)O)C(C)C)C(C)C,"Crk-like protein, SH2 domain (Homo sapiens, UniProt P46109)",binding,,1.86 µM
CC(C)C[C@H](NC(=O)[C@H](Cc1c[nH]c2ccccc12)NC(=O)CNC(=O)[C@H](Cc1ccccc1)NC(=O)[C@H](CO)NC(=O)[C@H](Cc1c[nH]c2ccccc12)NC(=O)CNC(=O)[C@@H]1CCCN1C(=O)[C@@H](N)C(C)C)C(=O)N[C@@H](Cc1c[nH]cn1)C(=O)N[C@@H](Cc1c[nH]c2ccccc12)C(=O)N1CCC[C@H]1C(=O)O,"V-type immunoglobulin domain-containing suppressor of T-cell activation, IgV domain (VSIR, Homo sapiens, UniProt Q9H7M9)","binding, microscale thermophoresis",,0.071 µM
CC(=O)N[C@@H](CCC(=O)O)C(=O)N[C@@H](CCC(=O)O)C(=O)N[C@@H](CCC(=O)O)C(=O)N[C@@H](Cc1c[nH]c2ccccc12)C(=O)N[C@@H](C)C(=O)N[C@@H](CCCNC(=N)N)C(=O)N[C@@H](CCC(=O)O)C(=O)N[C@@H](CC1CCCCC1)C(=O)NCC(=O)N[C@@H](C)C(=O)N[C@@H](CCC(N)=O)C(=O)N[C@@H](CC(C)C)C(=O)N[C@@H](CCCNC(=N)N)C(=O)N[C@@H](CCCNC(=N)N)C(=O)N[C@@H](C)C(=O)N[C@@H](C)C(=O)N[C@@H](CC(=O)O)C(=O)N[C@@H](CC(=O)O)C(=O)N[C@@H](CC(C)C)C(=O)N[C@@H](CC(N)=O)C(=O)N[C@@H](C)C(=O)N[C@@H](CCC(N)=O)C(=O)N[C@@H](Cc1ccc(O)cc1)C(=O)N[C@@H](CCC(=O)O)C(=O)N[C@@H](CCCNC(=N)N)C(=O)N[C@@H](CCCNC(=N)N)C(=O)N[C@@H](CCCNC(=N)N)C(N)=O,"Induced myeloid leukemia cell differentiation protein Mcl-1 homolog, residues 152-308 (Mus musculus, UniProt P97287)","binding, SPR",0.2% DMSO,0.0143 µM
CC(C)C[C@H](NC(=O)CNC(=O)[C@H](C)NC(=O)[C@H](CC(=O)O)NC(=O)[C@H](CC(=O)O)NC(=O)[C@H](C)NC(=O)[C@@H]1CCCN1C(=O)[C@H](CCCCN)NC(=O)CNC(=O)[C@@H]1CCCN1C(=O)[C@H](C)NC(=O)[C@@H]1CCCN1C(=O)[C@H](CCC(=O)O)NC(=O)CN)C(=O)N[C@H](C(=O)O)C(C)C,"F-box only protein 22 (Homo sapiens, UniProt Q8NEZ5)","binding, SPR",,52 µM
CC(=O)N[C@@H](CCCNC(=N)N)C(=O)N[C@H](C(=O)N1CCC[C@H]1C(=O)N[C@@H](COP(=O)(O)O)C(=O)N[C@@H](CC(C)C)C(=O)N1CCC[C@H]1C(=O)N[C@H](C(=O)N1CCC[C@H]1C(c1ccccc1)c1ccccc1)[C@@H](C)O)[C@@H](C)O,YWHAZ,isothermal titration calorimetry,second duplicate,4.2 µM
CC(=O)N[C@@H](Cc1ccc(O)cc1)C(=O)N[C@@H](CC(N)=O)C(=O)N1CCC[C@H]1C(=O)N[C@@H](Cc1ccccc1)C(=O)N[C@@H](CCC(=O)O)C(=O)N[C@@H](CCC(=O)O)C(=O)NCC(=O)NCC(N)=O,"EH domain-containing protein 1, EH domain (Homo sapiens, UniProt Q9H4M9)","peptide binding, ITC","20 °C, 0 mM NaCl",5.99 µM and 5.24 µM and 5.65 µM

# A few entries again:
Compound,target,assay,conditions,Kd
C=C[C@@]1(C)CC[C@@H](C(=C)C)[C@H](c2c[nH]c3ccccc23)[C@H]1N=C=S,"Transcriptional coactivator YAP1 (YAP1, Homo sapiens, UniProt P46937)","binding, BLI",,9.13 µM
CC(=O)N[C@@H](CCCNC(=N)N)C(=O)N[C@H](C(=O)N1CCC[C@H]1C(=O)N[C@@H](COP(=O)(O)O)C(=O)N[C@@H](CC(C)C)C(=O)N1CCC[C@H]1C(=O)N[C@H](C(=O)N1CCC[C@H]1C(c1ccccc1)c1ccccc1)[C@@H](C)O)[C@@H](C)O,YWHAZ,isothermal titration calorimetry,second duplicate,4.2 µM
